Measured values pooled from the literature.
Each numbered part is a random draw from the data of one study; scales do not carry over between parts.

Study 1 — method: protein binding microarray; form: double-stranded DNA, one strand shown; matrix: in vitro; tested at: not given; reference: not given; direction: higher = stronger binding
Target: Histone acetyltransferase KAT6A, winged helix 2, GST fusion (KAT6A, Homo sapiens, UniProt Q92794, residues 85-181)
Setting: 8-mer, flanks averaged, mean of 2 arrays, mostly near background
Target sequence (chain): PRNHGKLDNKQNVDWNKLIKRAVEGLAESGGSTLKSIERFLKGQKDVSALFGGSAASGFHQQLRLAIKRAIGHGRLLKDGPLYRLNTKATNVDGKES
`GCGTGTCC` has an E-score of 0.167.
`ATTAACAC` gave an E-score of 0.0883.
The E-score of `ATAACTTG` is reported as -0.0309.
The E-score of `AAATACGA` is reported as 0.0764.

Study 2 — method: protein-binding microarray; form: double-stranded DNA, one strand shown; matrix: in vitro; tested at: 2200 nM top; setting: 60-bp whole probe; with: salmon DNA 0.4 mg/ml; reference: random background probes; direction: higher = stronger binding; shared flanks, not repeated: GCCTAGCAC … GTCTTGATTCGCTTGACGCTGCTG
Target: Interferon regulatory factor 7, full length, phosphomimetic (IRF7, Homo sapiens, UniProt Q92985, residues 1-503, S471D/S472D/S475D/S476D/S477D/S483D/S484D/S487D)
Sequence of UniProt Q92985 (whole entry, unmodified, looked up): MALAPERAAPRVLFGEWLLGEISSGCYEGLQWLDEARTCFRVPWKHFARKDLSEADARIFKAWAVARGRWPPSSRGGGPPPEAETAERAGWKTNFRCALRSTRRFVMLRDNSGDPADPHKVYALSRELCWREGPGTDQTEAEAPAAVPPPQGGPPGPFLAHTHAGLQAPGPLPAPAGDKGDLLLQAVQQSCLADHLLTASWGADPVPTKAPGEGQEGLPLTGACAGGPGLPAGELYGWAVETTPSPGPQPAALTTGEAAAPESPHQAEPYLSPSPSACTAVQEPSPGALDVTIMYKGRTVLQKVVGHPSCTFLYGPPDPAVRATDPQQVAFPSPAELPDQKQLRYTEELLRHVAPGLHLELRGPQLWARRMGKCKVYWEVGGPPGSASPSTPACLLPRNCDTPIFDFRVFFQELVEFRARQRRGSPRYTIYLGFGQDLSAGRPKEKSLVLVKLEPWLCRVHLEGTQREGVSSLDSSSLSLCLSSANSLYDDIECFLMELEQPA
`TCAGAACTGAGACTGGATTAGTGCTAG` — result for “fitted relative affinity”: -0.463 z-score.
Under “fitted relative affinity”, `TTAGGTATCCTTTTCCTTTTGTGCTAG` is recorded as 3.08 z-score.
`GACGGTATCGGTCTTGGGACGTGCTAG` — result for “fitted relative affinity”: -0.0201 z-score.
`TTAGGAATCGGGTATCGGTTAGTGCTA` — result for “fitted relative affinity”: 0.293 z-score.
`GACGGTATAGACACTGGGGACGTGCTA` — result for “fitted relative affinity”: -0.538 z-score.

Study 3 — method: RNA Bind-n-Seq; form: RNA; matrix: in vitro; tested at: 200 nM; setting: whole 134-nt RNA, ends assumed; with: 150 mM LiCl; reference: input library; direction: higher = stronger binding; all molecules: 7-deaza-guanosine replaces G
Target: Fragile X messenger ribonucleoprotein 1, C-terminal low-complexity region (Fmr1, Mus musculus, UniProt P35922)
`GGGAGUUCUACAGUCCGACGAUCGUCCUGUGCUACACAUCGUAUGUACCGAAUCGGGGAGGGGUUUUUUUGGGGAAAGGGGAAAGUAUUAUGUUACGCCGUUCGGAUCUGCACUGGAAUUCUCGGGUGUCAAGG` gave a log2 enrichment of 0.855.
For `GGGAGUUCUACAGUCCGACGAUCAAGUCCUGUGCUACACAUCGUAUGUACCGAAUCGGGGAGGGGAAAAAGGGGAGGGGAAAGUAUUAUGUUACGCCGUUCGGAUCUGCACUUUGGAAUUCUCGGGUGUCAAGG`, the log2 enrichment was 0.703.
For `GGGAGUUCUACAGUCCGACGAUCUCCUGUGCUACACAUCGUAUGUACCGAAUCGGCCCCCCGGGCCCCCCGGGCCCCCCGGGAAAGUAUUAUGUUACGCCGUUCGGAUCUGCAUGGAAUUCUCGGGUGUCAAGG`, the log2 enrichment was -0.734.
`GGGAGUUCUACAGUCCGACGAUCGCAGGAAGUAAAAACAAAUGGAAAUGCAUCGGAUAGUGGCAGGGGUGGGGGUUGCUAAGGAAAGGGUGGGAUGGGAGUGGGUAAAGAGUUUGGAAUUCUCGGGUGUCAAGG` has a log2 enrichment of 1.8.
For `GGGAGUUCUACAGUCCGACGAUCUUAUAAUUGAUGAUCAUCCUGAAGUAACAGUAAUUGAAGAUCCCCAGUCAAAUUUGAAUGAUGAUGGUUUUACUGAAGUGGUAUCCAAAAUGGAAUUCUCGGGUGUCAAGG`, the log2 enrichment was -2.53.
The log2 enrichment of `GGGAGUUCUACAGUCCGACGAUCCCUGUGCUACACAUCGUAUGUACCGAAUCGGGGAAAAAAAGGGGUUUGGGGAAAAAGGGGAAAGUAUUAUGUUACGCCGUUCGGAUCUGCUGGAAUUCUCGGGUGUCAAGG` is reported as -1.49.

Further values, each from its own experiment
`PhoQ, residues 284 288 289 292 302 303 NLGVHL` has a fold induction of 11.3 (PhoP, residues 12 14 15 18 19 NNFVT (Escherichia coli, UniProt P23836); Sort-seq, refers to: YFP reporter; E. coli; PhoQ-PhoP variant library, with: 10 µM Mg2+; reference: high Mg2+ state, higher = stronger signaling).
